Measurements from different studies.
Each numbered part is a random draw from the data of one study; scales do not carry over between parts.

Series 1 — method: RNA Bind-n-Seq; molecule type: RNA; medium: in vitro; tested at: 200 nM; setting: whole 134-nt RNA, ends assumed; together with: 150 mM LiCl; baseline: input library; direction: higher = stronger binding; all molecules: 7-deaza-guanosine replaces G
Target: Fragile X messenger ribonucleoprotein 1, C-terminal low-complexity region (Fmr1, Mus musculus, UniProt P35922)
Strand	log2 enrichment
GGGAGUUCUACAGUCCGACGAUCAAACAGCUCUAUAACAAAAUACAAUGCGGGUUCAUGUUAAUGUUUUUAUCUCUAACAGGUUGGUUUCAGUGCUGAUGAAACUUGGGACUCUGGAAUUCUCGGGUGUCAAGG	-2.97
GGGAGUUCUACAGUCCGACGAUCUGCAGAUUGAUGAGUAUGAUCACUCCAAGCCCAUCCAGGGGCAACAGAAGAAGCCCUUUGAGGUGCACUGGAGGAAGCACACCCUGUCCUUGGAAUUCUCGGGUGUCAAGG	-1.82
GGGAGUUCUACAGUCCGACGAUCUGGGGUCUGCGUACGCCUGGAGUCCUUCCCCGCUGUGCUCAGCAUGGACCCUAUCCGGAGCUUCUGCGGGAAGCUGCGGUCUCUGGCCAGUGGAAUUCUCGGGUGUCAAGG	-0.508
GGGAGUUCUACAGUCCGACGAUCCUGUGCUACACAUCGUAUGUACCGAAUCGGGCCCCCCCGGGGCCCCCCCGGGCCCCCCCGGAAAGUAUUAUGUUACGCCGUUCGGAUCUGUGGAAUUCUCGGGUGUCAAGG	-0.835
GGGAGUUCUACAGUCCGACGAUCUCAGUGUCUUACCCUGAAGAGAAAGUUGUAGGUUGGCUGUUGAAAUUCAUUCCUUAGAUAUGAUCAGUUUGAUUGCCCGGCUUUAUUGCCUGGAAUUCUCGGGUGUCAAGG	-2.43
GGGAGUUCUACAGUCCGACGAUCGCAGGAAGUAAAAACAAAUGGAAAUGCUUCGGAUAGUGGCAGGGGUGGGGAAAGCUAAGGAAAGGGUGGGAUGGGAGUGGGUAAAGAGUUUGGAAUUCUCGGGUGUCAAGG	1.76
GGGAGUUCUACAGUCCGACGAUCUGGGAGGUGGAUUUUGUUUAUUGUUUUAGCUCAUUUCCAGGGGUGGGAAUUUUUUUUUAAUAUGUGUCAUGAAUAAAGUUGUUUUUGAAAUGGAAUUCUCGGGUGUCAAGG	0.0646
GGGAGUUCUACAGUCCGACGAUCUCCUGUGCUACACAUCGUAUGUACCGAAUCGGGGUUUUUGGGGAGGGGUUUUUUUGGGGAAAGUAUUAUGUUACGCCGUUCGGAUCUGCAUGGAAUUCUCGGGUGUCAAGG	-0.0103

Series 2 — method: protein-binding microarray; molecule type: double-stranded DNA, one strand shown; medium: in vitro; tested at: 2200 nM top; setting: 60-bp whole probe; together with: salmon DNA 0.4 mg/ml; baseline: random background probes; direction: higher = stronger binding; constant ends, left off below: GCCTAGCAC … GTCTTGATTCGCTTGACGCTGCTG
Target: Interferon regulatory factor 7, full length, phosphomimetic (IRF7, Homo sapiens, UniProt Q92985, residues 1-503, S471D/S472D/S475D/S476D/S477D/S483D/S484D/S487D)
Target sequence (chain): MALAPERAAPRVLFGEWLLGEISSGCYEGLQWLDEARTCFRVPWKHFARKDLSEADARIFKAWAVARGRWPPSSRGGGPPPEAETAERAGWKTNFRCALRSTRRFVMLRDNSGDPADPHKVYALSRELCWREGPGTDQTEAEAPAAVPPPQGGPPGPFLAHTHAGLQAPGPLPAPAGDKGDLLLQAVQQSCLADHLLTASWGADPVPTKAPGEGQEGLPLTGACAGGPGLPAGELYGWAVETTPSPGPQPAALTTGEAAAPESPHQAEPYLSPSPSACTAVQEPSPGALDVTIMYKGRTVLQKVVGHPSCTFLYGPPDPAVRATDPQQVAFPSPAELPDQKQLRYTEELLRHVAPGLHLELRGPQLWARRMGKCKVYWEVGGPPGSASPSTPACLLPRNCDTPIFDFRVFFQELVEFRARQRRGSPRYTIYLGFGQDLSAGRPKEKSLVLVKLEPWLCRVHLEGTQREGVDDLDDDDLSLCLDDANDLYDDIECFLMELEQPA
Strand	fitted relative affinity
CACGGTCTCCTTATCCTGACGTGCTAG	1.13 z-score
GGGGTTAGGGTCATTCATTCGTGCTAG	-0.481 z-score
GACGATTTCGGGACTGGAGACGTGCTA	1.3 z-score
GACGAACTGAGTCTCGAAACGTGCTAG	0.215 z-score
TCAGTTTCTATTTTCTGACTGTGCTAG	7.57 z-score
TGAAGTTTTAATAACACAGAGTGCTAG	-1.04 z-score
GACGATTTCGGGAATGGAGACGTGCTA	0.858 z-score
TTAGAACTAAGTATCGATTAGTGCTAG	-0.464 z-score
TTATAACTGGGGTATCGATTAGTGCTA	0.465 z-score

Series 3 — method: RNA Bind-n-Seq; molecule type: RNA; medium: in vitro; tested at: not given; setting: RNA with constant flanks, ends assumed; baseline: input RNA pool; direction: higher = stronger binding
Target: RING finger protein unkempt homolog, zinc fingers 1-6, GST-SBP tag (UNK, Homo sapiens, UniProt Q9C0B0, residues 30-357)
Residues (chain): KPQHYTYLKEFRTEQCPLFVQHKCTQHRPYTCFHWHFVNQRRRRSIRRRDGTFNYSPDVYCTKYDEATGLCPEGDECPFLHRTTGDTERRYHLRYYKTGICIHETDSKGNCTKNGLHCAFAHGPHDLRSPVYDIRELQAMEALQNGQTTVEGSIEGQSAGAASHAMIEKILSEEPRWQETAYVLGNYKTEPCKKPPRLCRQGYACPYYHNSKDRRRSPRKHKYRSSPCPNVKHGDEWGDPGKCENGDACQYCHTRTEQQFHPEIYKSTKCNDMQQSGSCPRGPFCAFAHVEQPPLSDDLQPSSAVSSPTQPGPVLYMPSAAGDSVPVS
Strand	bound/input enrichment [ratio]
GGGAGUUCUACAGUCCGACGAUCACCAUUGCCUUGCUUGGUUACCUGAAGCACUACAGAAACAUUCCUGGACCCCACAUGGUUUCCGUUCCCAAGUCUACUUUACAUAACUGGAUGAAUGAAUUUAAACGAUGGGUUCCAUCUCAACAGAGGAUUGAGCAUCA	0.0535
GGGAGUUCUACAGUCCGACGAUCACUGGAGGGGCAGCCUCUGUGAAGCAGCACCAUUCAAGUGCCCACAACAAAGACAUUGCUUCCGGGGUAUUUGAUGUGGUGGUGACAGACCCCUCAUGCCCAGCCUCGGUGCUCAAGUGUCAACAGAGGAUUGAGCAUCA	0.112
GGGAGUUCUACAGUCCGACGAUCUCUGUAGGAUGGCCAGCAUCCCGUGGUCCCUUUCAGCUGCUCAGUGCAUCCCUUGCAUCAUCCGUACCCUGUCUUGACAGCUUGAGGUCCUGGCAGUCUAUGUUUGCCCUUUGCUCAGGGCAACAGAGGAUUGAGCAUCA	0.104
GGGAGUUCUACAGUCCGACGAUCAAAGAAAACCUGGAGACUUCUCCUUUCAUAACUCCCGGAAAGCCUUGGGAAGAGGCCCGCCGUUUUAUUAUGAAUGAGGAUUUCUACCAGUGGCUGGAGGAAUCUGUAUACAUGGAUAUUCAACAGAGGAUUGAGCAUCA	0.32
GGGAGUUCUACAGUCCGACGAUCUGGUAUCUCUUCUUAGUGUUCUAUUUAUCUUAUUUGCUAAUGAGAACAAUUCUUCUUCUGUCCGGCUGUGCUUUAUUGAUAAAACCAAGUAUUGAAUAAAGAGAGUUAAUUAUCUUUUUACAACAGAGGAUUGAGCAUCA	1.16
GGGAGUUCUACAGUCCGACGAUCUUUUUUCAGUAAGACUUUCAGGCACUUCUUCCCUUUUGAUUUCUUUUUUUUCCUCUGUUUUUCCGCAUGCAAGUAUGUUGGUACGUUAUGUCCUGGUUUAAAAAGGAUUAAAAUUUUAAACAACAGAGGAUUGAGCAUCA	0.425
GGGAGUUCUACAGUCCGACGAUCCGGUUUGCAGUCCCACCAGCACUCGGCAGUAAUCUGGCUGACAAUGUCAUGAUUACUGCCGAUAUUAUUCCUUCUGGUUGGAAUUCAACUGAUGGGAAAAAUGAUAAAGCUAAAAGUGCACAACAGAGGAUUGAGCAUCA	0.107
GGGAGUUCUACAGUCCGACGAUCCUUGUUUAAAGCAAAACAAGACCUUGAAAGGUCAAUCAUAUUAAAGCUGGUUUGAUUAUUAACCGUUAUCUUUUAGGAAGAAGCUUUUUUCCCUAUGUAAGAUGUCAUACUGCAGAUUUACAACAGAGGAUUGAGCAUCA	1.58

Mixed results
Substance	target	assay	system	conditions	how to read	measurement	value
PhoQ, residues 284 288 289 292 302 303 GANMMA	PhoP, residues 12 14 15 18 19 SYFRT (Escherichia coli, UniProt P23836)	Sort-seq, item: YFP reporter	E. coli	PhoQ-PhoP variant library, together with: 10 µM Mg2+	baseline: high Mg2+ state, higher = stronger signaling	fold induction	0.821

Excerpt of the above (series 2):
Strand	fitted relative affinity
CACGGTCTCCTTATCCTGACGTGCTAG	1.13 z-score
GGGGTTAGGGTCATTCATTCGTGCTAG	-0.481 z-score
